Published values collected from several papers.
Parts stem from different laboratories: compare values within a part only. Changes are numbered by the printed parent chain.

Sample 1
Target: BATF2, bZIP domain (human)
Technique: DHFR protein complementation
Matrix: yeast
Notes: single substitutions, most at no-binding floor
Reference: wild-type JUN-FOS pair
Direction: higher = stronger binding
Parent: JUN, bZIP domain (human); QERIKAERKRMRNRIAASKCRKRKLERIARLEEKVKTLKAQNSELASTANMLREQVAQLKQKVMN; partner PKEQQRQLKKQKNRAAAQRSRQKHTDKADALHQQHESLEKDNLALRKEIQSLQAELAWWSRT
`T48P` has a binding fitness of -1.31 natural log.
For `L38R`, the binding fitness was -1.17 natural log.
`Q41D` has a binding fitness of -0.603 natural log.
`S47V` has a binding fitness of -0.128 natural log.
With `A29D` the binding fitness was -0.408 natural log.
With `S47I` the binding fitness was -0.243 natural log.
The binding fitness of `L45P` is reported as -1.31 natural log.
With `K36F` the binding fitness was -0.626 natural log.
`S47H` gave a binding fitness of -0.135 natural log.
`S43R` has a binding fitness of -0.124 natural log.
For `A49R`, the binding fitness was -0.118 natural log.
The binding fitness of `Q41T` is reported as -0.447 natural log.
The binding fitness of `L31Q` is reported as -1.19 natural log.
`V35I` gave a binding fitness of -0.127 natural log.
For `A29L`, the binding fitness was -0.648 natural log.
With `L52V` the binding fitness was -1.22 natural log.
With `A57P` the binding fitness was -1.5 natural log.
The binding fitness of `S43K` is reported as -0.0596 natural log.
The binding fitness of `A49P` is reported as -1.32 natural log.
With `E32W` the binding fitness was -1.04 natural log.
`R30N` has a binding fitness of -0.268 natural log.
`A29V` gave a binding fitness of -0.649 natural log.
With `E32R` the binding fitness was -0.447 natural log.
With `A29R` the binding fitness was -0.396 natural log.
For `L52S`, the binding fitness was -1.23 natural log.

Sample 2
Target: Ras GTPase-activating protein-binding protein 1, full length (G3BP1, Homo sapiens, UniProt Q13283)
Chain of UniProt Q13283 (whole entry, looked up): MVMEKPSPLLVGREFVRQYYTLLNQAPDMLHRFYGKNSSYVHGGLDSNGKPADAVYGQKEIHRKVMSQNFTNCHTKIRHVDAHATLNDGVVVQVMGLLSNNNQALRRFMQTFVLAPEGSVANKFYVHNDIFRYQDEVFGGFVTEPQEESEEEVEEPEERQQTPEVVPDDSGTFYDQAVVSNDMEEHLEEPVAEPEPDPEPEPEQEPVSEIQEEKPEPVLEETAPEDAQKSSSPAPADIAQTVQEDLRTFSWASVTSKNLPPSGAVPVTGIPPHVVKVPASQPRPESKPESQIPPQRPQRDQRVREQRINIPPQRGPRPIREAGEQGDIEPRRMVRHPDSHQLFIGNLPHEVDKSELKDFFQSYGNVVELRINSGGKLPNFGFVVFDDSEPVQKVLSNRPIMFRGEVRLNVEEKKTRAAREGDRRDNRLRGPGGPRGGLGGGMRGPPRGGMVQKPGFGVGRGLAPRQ
Technique: RNA Bind-n-Seq
Molecule type: RNA
Matrix: in vitro
Tested at: 200 nM
Notes: whole 134-nt RNA, ends assumed
Together with: 150 mM LiCl
Reference: input library
Direction: higher = stronger binding
Each molecule: 7-deaza-guanosine replaces G
Shared flanks, not repeated: GGGAGUUCUACAGUCCGACGAUC … UGGAAUUCUCGGGUGUCAAGG
`CCUGUGCUACACAUCGUAUGUACCGAAUCGGGUUUUUUUGGGUUUUUUUGGGAAAAAGGGAAAGUAUUAUGUUACGCCGUUCGGAUCUGC` has a log2 enrichment of 0.113.
For `GUUGUAGACACUCCUGGGAUCCUGGACCACCCUCUGGAGGAUAGGAACACCAUCGAGAUGCAGGCCAUCACUGCCCUGGCCCACCUCCGU`, the log2 enrichment was 0.743.
For `UCCCUGAAUCACCGACUGGAGGAGAGUUACCUACAAGAGCCUUCAUCCAGGAGCAUCCACACUGCAAUGAUAUAGGAAUGAGGUCUGAAC`, the log2 enrichment was -0.717.
`GAAAUCCACAGGAAAGUGAUGUCACAAAACUUCACCAACUGCCACACCAAGAUUCGCCAUGUUGAUGCUCAUGCCACGCUAAAUGAUGGU` gave a log2 enrichment of 0.653.
`CCUGUGCUACACAUCGUAUGUACCGAAUCGGCCCCCCCGGGCCCCCCCGGGCCCCCCCGGAAAGUAUUAUGUUACGCCGUUCGGAUCUGC` has a log2 enrichment of 0.347.
The log2 enrichment of `CUCAAGUCCUGUGCUACACAUCGUAUGUACCGAAUCGGGCCCGGCCCGGCCCGGAAAGUAUUAUGUUACGCCGUUCGGAUCUGCACUUCC` is reported as -0.29.
`ACCAUGCAGGUGGGCAUCUGUGGGAAGUGGGGCAAGGGGGGGAUAGGGAGGGGGGUAACACUUUGGGAACAGGUGGUCCCAGGUCGUUUC` has a log2 enrichment of 0.178.
With `UGGCCCUGGUGGCAUGCGGGGAGGAAGAGGUGGCCUCAUGGAUCGCGGUGGUCCCGGUGGAAUGUUCAGAGGUGGCCGUGGUGGAGACAG` the log2 enrichment was 0.269.
With `CAAGUCCUGUGCUACACAUCGUAUGUACCGAAUCGGGCCCGGGCCCGGGCCCGGGAAAGUAUUAUGUUACGCCGUUCGGAUCUGCACUUC` the log2 enrichment was -1.49.
`CAAGUCCUGUGCUACACAUCGUAUGUACCGAAUCGUGUGUGUGUGUGUGUGUGUGUAAAGUAUUAUGUUACGCCGUUCGGAUCUGCACUU` has a log2 enrichment of -0.828.
The log2 enrichment of `CAAGUCCUGUGCUACACAUCGUAUGUACCGAAUCGGAGGAAAAAAAGGUUUUUGGAAAGUAUUAUGUUACGCCGUUCGGAUCUGCACUUC` is reported as -1.02.

Sample 3
Target: Histone acetyltransferase KAT6A, both winged helices, GST fusion (KAT6A, Homo sapiens, UniProt Q92794, residues 1-181)
Technique: protein binding microarray
Molecule type: double-stranded DNA, one strand shown
Matrix: in vitro
Tested at: not given
Notes: 8-mer, flanks averaged, mean of 2 arrays, mostly near background
Reference: not given
Direction: higher = stronger binding
Construct (chain): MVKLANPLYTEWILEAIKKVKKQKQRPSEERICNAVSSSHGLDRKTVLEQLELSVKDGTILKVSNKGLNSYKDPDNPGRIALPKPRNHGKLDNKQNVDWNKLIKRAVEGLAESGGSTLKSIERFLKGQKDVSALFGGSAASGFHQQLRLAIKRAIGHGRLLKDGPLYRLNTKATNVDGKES
With `GTCAATTA` the E-score was -0.00624.
For `TCGTACGA`, the E-score was 0.0398.
`GTAATGTA` gave an E-score of 0.0913.
With `CATTTGAC` the E-score was -0.0991.
`CACGTTAG` has an E-score of -0.136.
With `AATACGGG` the E-score was 0.14.
The E-score of `GCCGCCCA` is reported as 0.17.
`ATTAGACA` gave an E-score of -0.0885.
The E-score of `GCAAGTTA` is reported as -0.0767.
The E-score of `ATAGCCTC` is reported as -0.00752.
`GAAGCTTA` has an E-score of -0.126.
`GTTTAATA` has an E-score of -0.0329.
With `GCAGCGCC` the E-score was 0.246.
`ACACATGG` has an E-score of -0.095.
`CTTGTCCC` has an E-score of 0.153.
The E-score of `CGAGCGGC` is reported as 0.277.
For `ACCTGCTA`, the E-score was -0.0855.
With `CGTGTCGC` the E-score was 0.245.
`GATTTATA` has an E-score of -0.0229.
With `AAGAGGGT` the E-score was -0.2.

Sample 4
Target: Sal-like protein 4, full length isoform A (SALL4, Homo sapiens, UniProt Q9UJQ4, residues 1-1053)
Chain of UniProt Q9UJQ4 (whole entry, looked up): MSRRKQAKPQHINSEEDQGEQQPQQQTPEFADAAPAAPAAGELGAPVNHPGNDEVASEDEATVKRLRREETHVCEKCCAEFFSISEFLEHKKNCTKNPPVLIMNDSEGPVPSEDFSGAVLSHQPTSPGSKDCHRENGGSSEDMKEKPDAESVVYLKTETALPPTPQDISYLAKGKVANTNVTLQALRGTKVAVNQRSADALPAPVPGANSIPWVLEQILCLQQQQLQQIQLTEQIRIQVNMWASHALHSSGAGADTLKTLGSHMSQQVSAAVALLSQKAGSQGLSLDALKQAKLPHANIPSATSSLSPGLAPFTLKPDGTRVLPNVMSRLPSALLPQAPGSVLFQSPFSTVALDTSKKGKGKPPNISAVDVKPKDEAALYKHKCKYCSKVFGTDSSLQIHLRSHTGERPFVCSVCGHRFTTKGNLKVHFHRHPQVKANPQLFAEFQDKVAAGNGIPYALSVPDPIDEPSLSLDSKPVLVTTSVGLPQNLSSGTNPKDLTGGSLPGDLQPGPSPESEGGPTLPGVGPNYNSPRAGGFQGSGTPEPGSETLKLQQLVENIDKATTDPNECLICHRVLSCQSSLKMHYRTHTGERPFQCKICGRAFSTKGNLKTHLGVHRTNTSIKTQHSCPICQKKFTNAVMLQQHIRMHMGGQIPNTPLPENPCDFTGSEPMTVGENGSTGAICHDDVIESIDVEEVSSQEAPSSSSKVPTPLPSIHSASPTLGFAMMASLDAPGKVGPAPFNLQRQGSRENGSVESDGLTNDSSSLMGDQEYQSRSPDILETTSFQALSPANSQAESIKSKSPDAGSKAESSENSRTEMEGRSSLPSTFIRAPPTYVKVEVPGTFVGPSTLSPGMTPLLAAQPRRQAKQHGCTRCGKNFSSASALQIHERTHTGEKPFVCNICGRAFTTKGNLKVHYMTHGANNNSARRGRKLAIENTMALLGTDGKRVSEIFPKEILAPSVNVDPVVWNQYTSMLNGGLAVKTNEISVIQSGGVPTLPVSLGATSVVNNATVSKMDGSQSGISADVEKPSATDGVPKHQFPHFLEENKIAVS
Technique: universal PBM
Molecule type: double-stranded DNA, one strand shown
Matrix: in vitro
Tested at: 600 nM
Notes: 8-mer, flanks averaged, mean of replicates
Direction: higher = stronger binding
With `ATTTGCCA` the E-score was 0.0475.
For `CTTAGAAC`, the E-score was 0.0502.
With `ACCCAGCT` the E-score was -0.286.
`GAGGAGGA` has an E-score of -0.166.
For `CACCGGCG`, the E-score was -0.265.
`CCGCCAGA` gave an E-score of -0.173.
For `CACTGTTA`, the E-score was 0.0556.
With `AAACCAAT` the E-score was 0.198.
The E-score of `AAACGCCA` is reported as -0.0471.
For `CCCCTATC`, the E-score was -0.183.
With `AGGTGCTC` the E-score was -0.328.
With `ACCCGAGC` the E-score was -0.144.
With `CGCAACAG` the E-score was 0.0757.
The E-score of `AGATAGTC` is reported as 0.00354.
With `CAGGCCCC` the E-score was -0.418.
`GATAGGCC` gave an E-score of -0.255.
With `GGGATTAA` the E-score was -0.00378.
For `ACCGATTC`, the E-score was -0.154.
For `GTGGTGAA`, the E-score was -0.0851.
For `CGCGATTC`, the E-score was -0.0817.
The E-score of `CACTCGCA` is reported as -0.198.

Sample 5
Target: ABI1, truncated, D143A, DHFR fusion (Arabidopsis thaliana)
Technique: DHFR PCA, deep sequencing
Matrix: yeast
Notes: methotrexate growth selection, single substitutions
Together with: (+)-ABA 58 µM
Reference: wild-type fitted maximum
Direction: higher = stronger binding
Parent: PYL1, truncated, DHFR fusion (Arabidopsis thaliana); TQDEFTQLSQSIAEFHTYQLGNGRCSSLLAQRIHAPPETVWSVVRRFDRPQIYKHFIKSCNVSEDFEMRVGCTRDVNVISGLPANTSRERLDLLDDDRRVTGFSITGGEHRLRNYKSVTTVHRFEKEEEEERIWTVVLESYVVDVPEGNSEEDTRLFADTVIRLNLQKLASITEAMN
`D153S` — result for “relative binding score”: 31.7%.
For `N165W`, “relative binding score” read 3.71%.
`F15N`: “relative binding score” 69.3%.
`C72N` — result for “relative binding score”: 73.9%.
`T160R` — result for “relative binding score”: 61.6%.
For `R45C`, “relative binding score” read 31.4%.
For `R69F`, “relative binding score” read 69.9%.
`E151L`: “relative binding score” 78%.
For `R99F`, “relative binding score” read 104%.
`E129T`: “relative binding score” 94.9%.
For `K54G`, “relative binding score” read -5.61%.
`V78R`: “relative binding score” 7.34%.
`G23Y` — result for “relative binding score”: 60.8%.
`L20K`: “relative binding score” 89.7%.
`G102S`: “relative binding score” 87.2%.
`T119W`: “relative binding score” -6.58%.
`T120V`: “relative binding score” -0.976%.
Under “relative binding score”, `A175N` is recorded as 79.1%.

Sample 6
Target: CCNE2, cyclin fold, Cln2 fusion (human)
Technique: yeast growth competition, sequencing
Matrix: yeast
Notes: strong parent motif
Reference: not given
Direction: higher = stronger binding
Parent: RBL2 docking peptide (human); STTRRRLFVENDS; partner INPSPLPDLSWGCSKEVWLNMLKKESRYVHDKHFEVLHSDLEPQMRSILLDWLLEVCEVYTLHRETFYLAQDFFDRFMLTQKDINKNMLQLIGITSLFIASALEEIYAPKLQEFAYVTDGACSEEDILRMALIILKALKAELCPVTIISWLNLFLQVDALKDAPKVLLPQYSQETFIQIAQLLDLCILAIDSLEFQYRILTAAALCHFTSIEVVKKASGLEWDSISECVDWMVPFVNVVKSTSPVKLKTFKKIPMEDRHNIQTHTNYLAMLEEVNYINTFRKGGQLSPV
`SFTRRRLFVENDS [T2F]`: “normalised enrichment score” 3.79.
`STTRRRLFVENQS [D12Q]`: “normalised enrichment score” 3.29.
`STTRRRLFVENDG [S13G]`: “normalised enrichment score” 4.72.
`STLRRRLFVENDS [T3L]` — result for “normalised enrichment score”: 1.95.
`SQTRRRLFVENDS [T2Q]` — result for “normalised enrichment score”: 4.44.
For `GTTRRRLFVENDS [S1G]`, “normalised enrichment score” read 4.42.
`STTTRRLFVENDS [R4T]`: “normalised enrichment score” 0.767.
Under “normalised enrichment score”, `STTRGRLFVENDS [R5G]` is recorded as -0.29.
For `STTWRRLFVENDS [R4W]`, “normalised enrichment score” read 0.65.
`STTRRRLFVESDS [N11S]`: “normalised enrichment score” 3.97.
Under “normalised enrichment score”, `CTTRRRLFVENDS [S1C]` is recorded as 5.02.
`STTRRRWFVENDS [L7W]`: “normalised enrichment score” -0.0335.
Under “normalised enrichment score”, `TTTRRRLFVENDS [S1T]` is recorded as 4.09.
For `STDRRRLFVENDS [T3D]`, “normalised enrichment score” read 0.039.
`STTRRRLFTENDS [V9T]` — result for “normalised enrichment score”: 4.52.
`STTRRRLFVENKS [D12K]` — result for “normalised enrichment score”: 3.81.
`STTRRRLFVEEDS [N11E]`: “normalised enrichment score” 4.88.
`STTMRRLFVENDS [R4M]` — result for “normalised enrichment score”: 0.887.
For `STTRRRLFVMNDS [E10M]`, “normalised enrichment score” read 2.72.

Some of these lines once more (sample 3):
`ATTAGACA` gave an E-score of -0.0885.
For `ACCTGCTA`, the E-score was -0.0855.
The E-score of `ATAGCCTC` is reported as -0.00752.
`GAAGCTTA` has an E-score of -0.126.
`CTTGTCCC` has an E-score of 0.153.
`GTTTAATA` has an E-score of -0.0329.
The E-score of `CGAGCGGC` is reported as 0.277.
With `CGTGTCGC` the E-score was 0.245.
For `TCGTACGA`, the E-score was 0.0398.
With `GTCAATTA` the E-score was -0.00624.
With `AATACGGG` the E-score was 0.14.
